Measurements from different studies.
Compare with care: the assays were run in different laboratories. Several values in a cell are separate wells, animals, samples, runs or records. ± gives the spread as reported.
CatSper channel complex: CatSper channel complex (Homo sapiens, UniProt Q7RTX7+Q86XQ3+Q8NEC5+Q96P56)
UniProt Q96P56, sequence (whole entry, looked up): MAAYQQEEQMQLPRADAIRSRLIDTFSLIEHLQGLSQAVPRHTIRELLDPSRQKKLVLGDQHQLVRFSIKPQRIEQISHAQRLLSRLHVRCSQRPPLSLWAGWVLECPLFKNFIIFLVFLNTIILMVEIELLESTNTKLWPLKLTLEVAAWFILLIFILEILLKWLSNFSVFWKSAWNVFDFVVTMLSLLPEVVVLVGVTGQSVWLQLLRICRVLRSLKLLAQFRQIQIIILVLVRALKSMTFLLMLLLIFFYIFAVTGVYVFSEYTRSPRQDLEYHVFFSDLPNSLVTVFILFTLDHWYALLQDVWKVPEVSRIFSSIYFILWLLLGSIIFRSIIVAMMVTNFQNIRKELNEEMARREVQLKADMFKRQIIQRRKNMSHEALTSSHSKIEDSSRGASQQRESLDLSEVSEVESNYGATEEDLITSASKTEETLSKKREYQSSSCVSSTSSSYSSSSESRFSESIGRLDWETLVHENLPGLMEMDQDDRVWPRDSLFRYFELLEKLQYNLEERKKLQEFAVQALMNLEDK
UniProt Q86XQ3, sequence (whole entry, looked up): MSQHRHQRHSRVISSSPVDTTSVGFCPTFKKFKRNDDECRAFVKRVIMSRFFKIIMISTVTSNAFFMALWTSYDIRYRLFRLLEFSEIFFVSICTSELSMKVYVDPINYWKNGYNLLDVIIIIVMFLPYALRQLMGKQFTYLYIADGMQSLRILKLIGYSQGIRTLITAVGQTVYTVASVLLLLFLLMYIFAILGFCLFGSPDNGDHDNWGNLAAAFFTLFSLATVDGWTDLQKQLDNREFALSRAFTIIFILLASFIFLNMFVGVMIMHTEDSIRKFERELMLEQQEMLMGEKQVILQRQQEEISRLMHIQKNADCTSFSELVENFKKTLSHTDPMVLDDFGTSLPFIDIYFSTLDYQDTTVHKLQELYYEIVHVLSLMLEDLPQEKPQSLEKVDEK
UniProt Q8NEC5, sequence (whole entry, looked up): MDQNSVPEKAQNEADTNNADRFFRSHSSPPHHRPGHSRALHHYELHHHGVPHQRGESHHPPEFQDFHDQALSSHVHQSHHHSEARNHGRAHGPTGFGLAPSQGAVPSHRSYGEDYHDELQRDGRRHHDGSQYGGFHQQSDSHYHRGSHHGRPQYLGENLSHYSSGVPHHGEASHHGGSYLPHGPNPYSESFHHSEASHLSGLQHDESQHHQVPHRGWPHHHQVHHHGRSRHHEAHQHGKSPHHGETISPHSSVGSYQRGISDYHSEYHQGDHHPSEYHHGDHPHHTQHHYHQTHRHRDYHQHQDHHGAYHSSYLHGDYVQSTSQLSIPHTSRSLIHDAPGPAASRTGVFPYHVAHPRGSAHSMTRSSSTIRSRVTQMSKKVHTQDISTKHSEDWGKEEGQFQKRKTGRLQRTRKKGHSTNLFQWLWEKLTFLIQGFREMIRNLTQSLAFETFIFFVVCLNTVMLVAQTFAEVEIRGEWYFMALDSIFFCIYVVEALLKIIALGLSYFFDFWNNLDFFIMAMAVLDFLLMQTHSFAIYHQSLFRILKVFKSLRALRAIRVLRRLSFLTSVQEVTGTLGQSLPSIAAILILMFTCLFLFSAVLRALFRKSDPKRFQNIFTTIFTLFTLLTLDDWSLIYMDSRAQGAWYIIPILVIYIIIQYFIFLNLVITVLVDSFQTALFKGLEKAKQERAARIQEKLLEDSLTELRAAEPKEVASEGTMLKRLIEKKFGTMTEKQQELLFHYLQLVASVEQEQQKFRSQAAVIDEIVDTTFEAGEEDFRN
UniProt Q7RTX7, sequence (whole entry, looked up): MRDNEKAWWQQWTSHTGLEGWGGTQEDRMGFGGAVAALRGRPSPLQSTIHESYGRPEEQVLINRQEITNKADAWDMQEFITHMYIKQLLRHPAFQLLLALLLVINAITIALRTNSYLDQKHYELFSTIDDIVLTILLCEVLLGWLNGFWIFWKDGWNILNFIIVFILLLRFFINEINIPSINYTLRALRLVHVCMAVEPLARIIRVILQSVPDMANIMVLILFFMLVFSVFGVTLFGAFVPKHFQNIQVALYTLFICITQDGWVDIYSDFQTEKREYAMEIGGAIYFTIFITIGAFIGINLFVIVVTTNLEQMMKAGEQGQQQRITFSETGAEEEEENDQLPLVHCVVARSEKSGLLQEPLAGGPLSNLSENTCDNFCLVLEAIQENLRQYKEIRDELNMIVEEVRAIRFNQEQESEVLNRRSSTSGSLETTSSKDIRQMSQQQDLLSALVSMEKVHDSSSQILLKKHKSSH
env: env (Human immunodeficiency virus 1, UniProt Q75760)
PIK3CB: Phosphatidylinositol 4,5-bisphosphate 3-kinase catalytic subunit beta isoform (PIK3CB, Homo sapiens, UniProt P42338)
UniProt P42338, sequence (whole entry, looked up): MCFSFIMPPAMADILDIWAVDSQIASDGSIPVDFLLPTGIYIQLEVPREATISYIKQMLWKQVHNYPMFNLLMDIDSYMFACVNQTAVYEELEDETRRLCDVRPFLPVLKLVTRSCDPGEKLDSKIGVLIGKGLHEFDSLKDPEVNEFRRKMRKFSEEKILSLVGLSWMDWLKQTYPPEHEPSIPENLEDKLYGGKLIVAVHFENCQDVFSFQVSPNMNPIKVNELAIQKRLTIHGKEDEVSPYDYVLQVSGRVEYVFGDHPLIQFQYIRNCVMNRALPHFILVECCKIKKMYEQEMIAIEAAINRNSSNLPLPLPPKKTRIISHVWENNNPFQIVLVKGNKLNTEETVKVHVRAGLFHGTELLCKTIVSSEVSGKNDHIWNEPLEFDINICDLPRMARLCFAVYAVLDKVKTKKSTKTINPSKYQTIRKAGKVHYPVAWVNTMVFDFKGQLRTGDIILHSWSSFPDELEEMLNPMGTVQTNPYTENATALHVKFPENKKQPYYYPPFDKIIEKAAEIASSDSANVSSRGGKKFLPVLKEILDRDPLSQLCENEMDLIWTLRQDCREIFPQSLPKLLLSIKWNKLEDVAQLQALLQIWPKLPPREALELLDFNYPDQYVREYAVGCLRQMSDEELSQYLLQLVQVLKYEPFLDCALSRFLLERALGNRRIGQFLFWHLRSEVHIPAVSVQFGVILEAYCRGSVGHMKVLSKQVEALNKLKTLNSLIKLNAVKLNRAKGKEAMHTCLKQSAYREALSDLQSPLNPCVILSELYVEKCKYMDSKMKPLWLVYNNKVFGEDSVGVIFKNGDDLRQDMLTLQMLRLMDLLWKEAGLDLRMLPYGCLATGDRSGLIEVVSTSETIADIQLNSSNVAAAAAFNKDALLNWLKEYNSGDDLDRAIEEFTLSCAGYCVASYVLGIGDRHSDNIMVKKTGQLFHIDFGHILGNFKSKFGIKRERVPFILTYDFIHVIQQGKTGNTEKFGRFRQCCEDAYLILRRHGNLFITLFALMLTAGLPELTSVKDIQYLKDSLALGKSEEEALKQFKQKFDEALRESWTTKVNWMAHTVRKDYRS
HDAC3: Histone deacetylase 3 (HDAC3, Homo sapiens, UniProt O15379)
UniProt O15379, sequence (whole entry, looked up): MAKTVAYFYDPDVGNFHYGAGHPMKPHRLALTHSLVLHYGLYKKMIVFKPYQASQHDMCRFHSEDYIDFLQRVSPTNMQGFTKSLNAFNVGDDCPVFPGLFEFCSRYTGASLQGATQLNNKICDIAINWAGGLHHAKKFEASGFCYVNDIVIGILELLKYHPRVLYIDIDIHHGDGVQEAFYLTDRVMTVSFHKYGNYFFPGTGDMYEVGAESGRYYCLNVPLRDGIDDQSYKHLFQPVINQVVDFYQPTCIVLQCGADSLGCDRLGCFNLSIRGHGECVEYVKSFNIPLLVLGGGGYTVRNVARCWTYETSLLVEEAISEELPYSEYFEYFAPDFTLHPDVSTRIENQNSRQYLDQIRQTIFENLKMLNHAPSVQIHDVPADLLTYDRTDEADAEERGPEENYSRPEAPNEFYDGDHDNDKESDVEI
SLC10A1: Hepatic sodium/bile acid cotransporter (SLC10A1, Homo sapiens, UniProt Q14973)
CDK2 with cyclin A: Cyclin-dependent kinase 2, with cyclin A (CDK2, Homo sapiens, UniProt P24941)
HDAC8: Histone deacetylase 8 (HDAC8, Homo sapiens, UniProt Q9BY41)
UniProt Q9BY41, sequence (whole entry, looked up): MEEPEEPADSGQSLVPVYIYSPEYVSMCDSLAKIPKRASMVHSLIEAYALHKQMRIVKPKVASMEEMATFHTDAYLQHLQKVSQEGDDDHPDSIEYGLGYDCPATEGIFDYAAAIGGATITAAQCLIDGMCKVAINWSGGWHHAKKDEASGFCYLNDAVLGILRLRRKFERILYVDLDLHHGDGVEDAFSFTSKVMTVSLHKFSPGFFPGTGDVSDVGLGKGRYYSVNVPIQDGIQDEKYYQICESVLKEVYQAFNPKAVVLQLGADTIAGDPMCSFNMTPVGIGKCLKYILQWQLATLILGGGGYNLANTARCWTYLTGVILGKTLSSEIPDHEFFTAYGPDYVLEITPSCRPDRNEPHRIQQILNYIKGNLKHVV
PSMB6: Proteasome subunit beta type-6 (PSMB6, Homo sapiens, UniProt P28072)
UniProt P35346, sequence (whole entry, looked up): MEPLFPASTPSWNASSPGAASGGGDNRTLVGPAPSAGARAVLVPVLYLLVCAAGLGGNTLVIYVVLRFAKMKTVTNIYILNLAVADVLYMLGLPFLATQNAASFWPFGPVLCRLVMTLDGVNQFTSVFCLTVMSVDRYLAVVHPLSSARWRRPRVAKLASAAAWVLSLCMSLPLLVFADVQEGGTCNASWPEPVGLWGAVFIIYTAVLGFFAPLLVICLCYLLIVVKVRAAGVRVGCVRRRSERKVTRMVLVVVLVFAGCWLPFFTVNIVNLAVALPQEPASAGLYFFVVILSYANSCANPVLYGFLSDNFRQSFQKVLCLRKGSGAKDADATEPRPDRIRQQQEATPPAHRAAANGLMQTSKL
UniProt P28072, sequence (whole entry, looked up): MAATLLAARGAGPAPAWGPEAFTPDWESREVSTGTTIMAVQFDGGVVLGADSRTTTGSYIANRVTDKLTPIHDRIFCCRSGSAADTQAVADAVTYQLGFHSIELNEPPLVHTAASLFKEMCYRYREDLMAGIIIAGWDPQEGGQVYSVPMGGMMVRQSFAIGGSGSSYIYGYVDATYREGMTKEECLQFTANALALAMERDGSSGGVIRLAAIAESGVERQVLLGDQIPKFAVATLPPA
UniProt P49720, sequence (whole entry, looked up): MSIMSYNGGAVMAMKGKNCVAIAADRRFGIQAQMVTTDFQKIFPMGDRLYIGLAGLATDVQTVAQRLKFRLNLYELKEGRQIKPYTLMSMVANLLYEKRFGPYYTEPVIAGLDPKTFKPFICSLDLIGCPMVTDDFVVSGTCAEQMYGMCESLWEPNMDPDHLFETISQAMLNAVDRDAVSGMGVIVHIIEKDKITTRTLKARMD

Compound = OC(CN1C2=NCCCN2c2ccccc21)c1ccc(Br)cc1 (stereo not shown); tested on = CatSper channel complex; test = calcium influx, inhibitor, FLIPR; system = human sperm; conditions = with: high pH, high potassium; quantity = IC50; result = 18000 nM
Compound = COCCN(C)CC(=O)NC(Cc1ccc(-c2ccccc2)cc1)B(O)O (stereo not shown); tested on = Proteasome subunit beta type-10 / Proteasome subunit beta type-3 (Homo sapiens, UniProt P40306+P49720); test = β2i activity, inhibitor; conditions = immunoproteasome, with: Ac-KQL-AMC; quantity = IC50; result = > 10000 nM
Compound = C=CC(=O)N1C[C@H](C)N(c2nc(OC[C@@]34CCCN3C[C@H](F)C4)nc3c(F)c(-c4ccc(F)c5sc(N)c(C#N)c45)c(C(F)(F)F)cc23)C[C@H]1C; tested on = GTPase KRas, GppNHp; with RAF1 RBD (KRAS, Homo sapiens, UniProt P01116, Q61R); quantity = IC50; result = 18400 ± 2900 nM
Compound = CCCOC(=O)N1c2cc(CNC)ccc2[C@H](NC(=O)C(=O)Nc2ccc(Cl)c(F)c2)[C@H]1CNC(=N)N; tested on = env; test = HIV-1 infection; system = Cf2Th-CD4/CCR5 cells; conditions = 48 h; quantity = IC50; result = 1380 nM
Compound = CCc1ccc(/N=C2\C(=O)N(Cc3ccc([N+](=O)[O-])cc3)c3ccccc32)cc1; tested on = PIK3CB; test = enzyme activity, inhibitor, ADP detection; quantity = IC50; result = 60 nM
Compound = Cc1c(COc2cc(OCc3cccc(C#N)c3)c(CN3CCCC[C@H]3C(=O)O)cc2Cl)cccc1-c1cccc(OCCCCCC(=O)NO)c1; tested on = HDAC3; test = enzyme activity, inhibitor; quantity = IC50; result = 48.5 nM
Compound = COC1CN([C@H]2CC[C@H]([C@@]3(C)Oc4c(Cl)cc(C(=O)NCc5c(SC)cc(C)[nH]c5=O)c(C)c4O3)CC2)C1; test = RNA-seq, measured: SERPINI1 mouse homolog; system = mouse, HT-1376 xenograft, whole blood; conditions = dose not given; how to read = baseline: vehicle; quantity = log2 fold change; result = 0.548
Compound = Cc1cc(NC2CCN(C)CC2)ccc1-c1cc2c(N3CCC[C@H](C(=O)NCc4ccc(OC(F)(F)F)cc4)C3)ncnc2[nH]1; tested on = Inhibitor of nuclear factor kappa-B kinase subunit beta (IKBKB, Homo sapiens, UniProt O14920); test = enzyme activity, inhibitor, mobility shift; quantity = IC50; result = 2570 nM
Compound = CC(C)(C)n1ncc2c(=O)n(Cc3cccc(F)c3)c(NCc3ccc(F)cn3)nc21; tested on = Cytochrome P450 1A2 (CYP1A2, Homo sapiens, UniProt P05177); test = enzyme activity, inhibitor; quantity = IC50; result = 15300 nM
Compound = C[C@H](CCC(=O)NCC(=O)O)[C@H]1CC[C@H]2[C@@H]3CC[C@@H]4C[C@H](O)CC[C@]4(C)[C@H]3C[C@H](O)[C@]12C; tested on = SLC10A1; quantity = IC50; result = > 80000 nM
Compound = Fc1ccc(Nc2nc(NC3CCCCC3)c3cc(Br)ccc3n2)cc1F; tested on = Beta-2 adrenergic receptor (ADRB2, Homo sapiens, UniProt P07550); test = cAMP production, antagonist, GloSensor; conditions = with: isoproterenol 1 µM; quantity = IC50; result = 28000 ± 10000 nM
Compound = CN1CCCNC(=O)c2cccc(c2)C(=O)NCCCN(C)CCCNc2cccc3c2C(=O)c2cccc(c2C3=O)NCCC1; tested on = SAS; test = RNA-Seq, measured: SDF2L1 mRNA; conditions = 1 µM, 6 h; how to read = baseline: untreated cells; quantity = log2 fold change; result = -0.648
Compound = CC1Cc2ccccc2N1C1=C(c2ccc(F)cc2)C(=O)NC1=O (stereo not shown); tested on = Glycogen synthase kinase-3 beta (GSK3B, Homo sapiens, UniProt P49841); test = enzyme activity, inhibitor; quantity = IC50; result = 31800 nM
Compound = CNS(=O)(=O)Nc1nccc(Cc2c(C)c3ccc(Oc4ncccc4F)cc3oc2=O)c1F; tested on = NCI-H1355; test = cell viability; conditions = 7 days; quantity = IC50; result = 762 nM
Compound = O=C(Nc1cc(C2CC2)[nH]n1)C1CCC1; tested on = CDK2 with cyclin A; test = radiometric; conditions = with: 1 µM ATP; quantity = IC50; result = 89 nM
Compound = Cc1ncsc1-c1ccc(C(C)NC(=O)C2CC(O)CN2C(=O)C(NC(=O)CCCCCCCCCCN2CCCC(Nc3ncc(Cl)c(Nc4ccccc4S(=O)(=O)C(C)C)n3)C2)C(C)(C)C)cc1 (stereo not shown); tested on = 22Rv1; test = RNA-seq, measured: TRIP6 mRNA; conditions = concentration not given; how to read = baseline: DMSO; quantity = log2 fold change; result = -2.31
Compound = CCN(CC)CC(=O)Nc1cccc(-n2cc(-c3ccc4ccc(-c5cn(-c6cccc(NC(=O)CN(CC)CC)c6)nn5)cc4c3)nn2)c1; tested on = PIK3CB; test = enzyme activity, inhibitor; quantity = IC50; result = > 10000 nM
Compound = C[C@H](CCC(=O)NCC(=O)O)[C@H]1CC[C@H]2[C@@H]3[C@H](O)C[C@@H]4C[C@H](O)CC[C@]4(C)[C@H]3CC[C@]12C; tested on = SLC10A1; quantity = IC50; result = 25800 nM
Compound = CC(C)c1ccccc1OS(=O)(=O)Oc1cccc(C(=O)NO)c1; tested on = HDAC8; test = enzyme activity, inhibitor, fluorescence; quantity = IC50; result = 317 nM
Compound = Cc1c(COc2cc(OCc3cccc(C#N)c3)c(CN3CCCC[C@@H]3C(=O)O)cc2Cl)cccc1-c1cccc(OCCCCCCC(=O)NO)c1; tested on = HDAC3; test = enzyme activity, inhibitor; quantity = IC50; result = 14.4 nM
Compound = Cc1cc(C(C)(C)C)ccc1OS(=O)(=O)Oc1cncc(C(=O)NO)c1; tested on = HDAC8; test = enzyme activity, inhibitor, fluorescence; quantity = IC50; result = 5000 nM
Compound = Fc1ccc2cccc(-c3ncc4c(N5C[C@H]6CC[C@@H](C5)N6)nc(OCC56CCCN5CCC6)nc4c3F)c2c1F; tested on = GTPase KRas, with RAF (KRAS, Homo sapiens, UniProt P01116); test = RAF-KRAS interaction, inhibitor, NanoBRET; system = HEK293T; conditions = 24 h; quantity = IC50; result = 5200 ± 300 nM
Compound = O=c1c(-c2ccc(Cl)c(CN3CCOCC3)c2)coc2cc(O)ccc12; tested on = 3 beta-hydroxysteroid dehydrogenase/Delta 5-->4-isomerase type 1 (HSD3B1, Homo sapiens, UniProt P14060); test = enzyme activity, inhibitor; quantity = IC50; result = 1180 nM
Compound = CC(C)[C@H]1NC(=O)[C@@H](CC(=O)O)NC(=O)[C@H](CC(=O)O)NC(=O)CNC(=O)[C@H](CCCCN)NC(=O)CNC(=O)[C@H](N)CSSC[C@H](C(N)=O)NC1=O; tested on = Integrin alpha-V/beta-3 (Homo sapiens, UniProt P05106+P06756); test = ligand displacement, flow cytometry; quantity = IC50; result = > 20000 nM
Compound = COc1ccc2c(c1)CN(C(=O)CCN1CCC(Cc3ccccc3)CC1)CCS2; tested on = Kir3.1/Kir3.4 (Homo sapiens, UniProt P48544+P48549); test = GIRK current, inhibitor, whole-cell patch clamp; system = stable cell line; quantity = IC50; result = > 100000 nM
Compound = CN(C)c1ccc(CCC(=O)N2C(=O)C3(NC(c4ccc(F)cc4)C4(C(=O)Nc5ccccc54)N3Cc3ccc(F)cc3)c3ccccc32)cc1 (stereo not shown); tested on = PIK3CB; test = enzyme activity, inhibitor, ADP detection; quantity = IC50; result = 291 nM
Compound = CC(C)C[C@H](NC(=O)[C@H](Cc1ccc(CN)cc1)NC(=O)[C@H](Cc1ccccc1)N=[N+]=[N-])C(=O)N[C@@H](CCC1CCCCC1)C(=O)[C@@]1(C)CO1; tested on = PSMB6; test = competitive ABPP; system = Raji cell lysate; quantity = IC50; result = > 10000 nM
Compound = C[C@@H](O)[C@@H]1NC(=O)[C@H](CCCCN)NC(=O)[C@@H](Cc2c[nH]c3ccccc23)NC(=O)[C@H](Cc2ccc(NC(N)=O)cc2)NC(=O)[C@H](NC(=O)[C@H](Cc2ccccc2)NC(N)=O)CSSC[C@@H](C(=O)N[C@@H](Cc2ccc3ccccc3c2)C(N)=O)NC1=O; tested on = Somatostatin receptor type 5 (SSTR5, Homo sapiens, UniProt P35346); test = radioligand binding, inhibitor, competitive radioligand displacement; conditions = cloned receptor; quantity = IC50; result = 502 nM and 170 nM
Compound = CCC(=O)N(CCC(c1ccccc1)c1ccco1)Cc1ccc(OC)c(OC)c1 (stereo not shown); tested on = UGT74F1 (Arabidopsis thaliana, UniProt O22820); test = enzyme activity, inhibitor; quantity = IC50; result = 155000 nM
Compound = CC1(C)C[N+]2=Cc3ccc4[n]3[Au-]23[n]2c(ccc2-c2nc5ccccc5nc2-4)C=[N+]3C1.F[P-](F)(F)(F)(F)F; tested on = DNA topoisomerase 1 (TOP1, Homo sapiens, UniProt P11387); test = enzyme activity, inhibitor; quantity = IC50; result = 8500 nM
Compound = Cc1nn(-c2cccc(N)c2)c(=O)c2cnc(Nc3ccc(N4CCNCC4)cc3)nc12; tested on = Tyrosine-protein kinase Lyn, isoform B (LYN, Homo sapiens, UniProt P07948); test = inhibitor, SelectScreen kinase; quantity = IC50; result = 1020 nM
Compound = CN1C(=O)/C(=N\c2ccc(Cl)cc2Br)c2ccccc21; tested on = PIK3CB; test = enzyme activity, inhibitor, ADP detection; quantity = IC50; result = 47 nM
Compound = CNCc1ccc2c(c1)N(C(=O)OCCC(F)(F)F)[C@H](CNC(=N)N)[C@H]2NC(=O)C(=O)Nc1ccc(Cl)c(F)c1; tested on = env; test = HIV-1 infection; system = Cf2Th-CD4/CCR5 cells; conditions = 48 h; quantity = IC50; result = 1600 nM
Compound = CC(C)CN(C)c1nc(N)c(C(=O)N=C(N)N)nc1Cl; tested on = CatSper channel complex; test = calcium influx, inhibitor, FLIPR; system = human sperm; conditions = with: high pH, high potassium; quantity = IC50; result = 12000 nM
Compound = CCn1nc(Cl)c2c1-c1cnc(N)c(c1)O[C@H](C)c1cc(F)ccc1-c1nn(C)cc1C2; tested on = Ephrin type-A receptor 2 (EPHA2, Homo sapiens, UniProt P29317); test = enzyme activity, inhibitor, radiometric; quantity = IC50; result = 525 nM
Compound = COc1cc(-n2cc3cc(F)cc(C(N)=O)c3n2)cc(Cl)c1C1CC(O)(CCO)Cc2ccccc21 (stereo not shown); tested on = Poly [ADP-ribose] polymerase 1 (PARP1, Homo sapiens, UniProt P09874); test = enzyme activity, inhibitor, radiometric; quantity = IC50; result = 0.07 nM
Compound = CC(C)C[C@H](NC(=O)[C@H](Cc1ccc(CN)cc1)NC(=O)[C@H](Cc1ccccc1)N=[N+]=[N-])C(=O)N[C@@H](CC1CCC(C)CC1)C(=O)[C@@]1(C)CO1 (stereo partly shown); tested on = PSMB6; test = competitive ABPP; system = Raji cell lysate; quantity = IC50; result = > 10000 nM
Compound = C=CCn1c(NN)nc2cc3ccccc3cc2c1=O; tested on = Genome polyprotein, protease (Hepatitis C virus genotype 1b, UniProt O92972); test = enzyme activity, inhibitor, FRET; quantity = IC50; result = 15800 nM
Compound = O=C1Nc2c(Br)cccc2/C1=C1/Nc2ccccc2C1=NO; tested on = Non-receptor tyrosine-protein kinase TYK2 (TYK2, Homo sapiens, UniProt P29597); quantity = IC50; result = > 10000 nM
Compound = Cc1nc(N(C)c2ccc3c(c2)/C(=C/c2cn(C)c4ccccc24)C(=O)N3C)c2ccccc2n1; tested on = PIK3CB; test = enzyme activity, inhibitor, ADP detection; quantity = IC50; result = 106 nM
Compound = NC(=O)c1cccc(-c2cnn3ccc(Nc4ccc(N5CCOCC5)cc4)nc23)c1; tested on = CDK2 with cyclin A; test = radiometric; conditions = with: 1 µM ATP; quantity = IC50; result = 430 nM
Compound = COc1ccccc1/C=C1\C(=O)N(C)c2ccc(N(C)c3nc(C)nc4ccccc34)cc21; tested on = PIK3CB; test = enzyme activity, inhibitor, ADP detection; quantity = IC50; result = 101 nM
Compound = Cn1ncc2cc(-c3cncc(Cl)c3N3CCC4(CCNC4=O)CC3)ccc21; tested on = Cyclin-dependent kinase 8, with cyclin C (CDK8, Homo sapiens, UniProt P49336); quantity = IC50; result = 5 nM
